{"data": "Measurements gathered from unrelated publications", "note": "Each numbered part is a random draw from the data of one study; scales do not carry over between parts. Changes are numbered by the printed parent chain.", "UniProt P68400, sequence (whole entry, looked up)": "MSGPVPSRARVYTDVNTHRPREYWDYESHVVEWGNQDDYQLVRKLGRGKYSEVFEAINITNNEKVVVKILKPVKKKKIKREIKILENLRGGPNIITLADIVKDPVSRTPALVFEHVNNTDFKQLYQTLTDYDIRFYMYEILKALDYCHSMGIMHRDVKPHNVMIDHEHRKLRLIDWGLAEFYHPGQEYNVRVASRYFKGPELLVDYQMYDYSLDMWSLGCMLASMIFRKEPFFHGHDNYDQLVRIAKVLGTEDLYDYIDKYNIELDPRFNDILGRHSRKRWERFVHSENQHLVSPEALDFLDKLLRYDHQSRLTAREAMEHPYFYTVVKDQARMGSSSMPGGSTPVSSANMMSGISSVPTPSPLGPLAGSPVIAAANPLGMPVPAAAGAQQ"}
{"data": "Block 1", "target": "CCNA2, cyclin fold, Cln2 fusion (human)", "method": "yeast growth competition, sequencing", "matrix": "yeast", "notes": "strong parent motif", "baseline": "not given", "reading": "higher = stronger binding", "parent": "viral docking peptide; TSVRRALFTGGSD; partner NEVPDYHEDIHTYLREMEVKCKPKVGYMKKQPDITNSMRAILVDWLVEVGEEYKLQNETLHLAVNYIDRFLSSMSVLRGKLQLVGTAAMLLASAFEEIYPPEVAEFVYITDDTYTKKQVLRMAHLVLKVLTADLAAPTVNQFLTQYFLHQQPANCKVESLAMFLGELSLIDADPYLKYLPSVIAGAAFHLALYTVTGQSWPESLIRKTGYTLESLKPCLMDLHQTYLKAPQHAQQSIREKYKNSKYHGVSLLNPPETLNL"}
{"Change": "F8N", "normalised enrichment score": 0.639}
{"Change": "S2Y", "normalised enrichment score": 4.94}
{"Change": "G10A", "normalised enrichment score": 6.36}
{"Change": "S2G", "normalised enrichment score": 6.51}
{"Change": "L7W", "normalised enrichment score": 0.541}
{"Change": "V3A", "normalised enrichment score": 6.14}
{"Change": "T9I", "normalised enrichment score": 5.87}
{"Change": "F8D", "normalised enrichment score": 0.378}
{"data": "Block 2", "target": "UDP-N-acetylglucosamine--peptide N-acetylglucosaminyltransferase 110 kDa subunit (OGT, Homo sapiens, UniProt O15294)", "effect on": "binding", "method": "phage display NGS", "molecule type": "peptide", "notes": "panning round 2", "baseline": "input library", "UniProt O15294, sequence (whole entry, looked up)": "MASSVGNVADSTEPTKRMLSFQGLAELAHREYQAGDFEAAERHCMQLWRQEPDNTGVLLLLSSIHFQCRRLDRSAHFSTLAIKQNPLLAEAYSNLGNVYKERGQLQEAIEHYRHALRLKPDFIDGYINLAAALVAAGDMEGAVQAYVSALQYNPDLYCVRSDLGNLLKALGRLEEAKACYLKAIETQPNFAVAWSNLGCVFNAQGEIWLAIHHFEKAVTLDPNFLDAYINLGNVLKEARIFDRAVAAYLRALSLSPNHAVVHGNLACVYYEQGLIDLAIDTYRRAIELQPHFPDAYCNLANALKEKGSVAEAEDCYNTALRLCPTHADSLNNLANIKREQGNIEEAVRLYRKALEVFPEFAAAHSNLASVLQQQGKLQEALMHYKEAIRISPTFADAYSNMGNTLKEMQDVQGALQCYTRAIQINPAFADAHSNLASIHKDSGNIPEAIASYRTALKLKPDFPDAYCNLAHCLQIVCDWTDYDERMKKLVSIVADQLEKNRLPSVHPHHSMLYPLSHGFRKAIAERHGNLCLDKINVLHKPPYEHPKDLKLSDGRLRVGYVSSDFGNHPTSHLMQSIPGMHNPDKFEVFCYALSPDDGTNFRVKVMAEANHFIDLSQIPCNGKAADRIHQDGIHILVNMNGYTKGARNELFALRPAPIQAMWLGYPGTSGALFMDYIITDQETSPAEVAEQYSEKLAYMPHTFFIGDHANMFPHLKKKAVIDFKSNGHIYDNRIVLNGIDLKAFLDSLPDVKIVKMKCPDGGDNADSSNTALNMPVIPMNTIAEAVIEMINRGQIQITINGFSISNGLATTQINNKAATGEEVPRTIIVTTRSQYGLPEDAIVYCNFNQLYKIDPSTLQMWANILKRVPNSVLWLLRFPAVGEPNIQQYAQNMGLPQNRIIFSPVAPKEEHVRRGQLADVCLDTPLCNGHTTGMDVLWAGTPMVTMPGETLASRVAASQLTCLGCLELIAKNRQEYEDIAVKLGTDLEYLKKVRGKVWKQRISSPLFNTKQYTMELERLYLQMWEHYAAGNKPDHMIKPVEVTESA"}
{"Molecule": "QNDRYLPAYVITYAR", "minimum log2 enrichment ratio": 6.9}
{"Molecule": "HQHPHGQYKEQIGHY", "minimum log2 enrichment ratio": 2.84}
{"Molecule": "EVHRDMRYGHAPHA", "minimum log2 enrichment ratio": 2.18}
{"Molecule": "HIHQHIHQEEQWDYH", "minimum log2 enrichment ratio": 2.39}
{"Molecule": "HPHPPHPHGFDTHHV", "minimum log2 enrichment ratio": 3.4}
{"Molecule": "VTTHSHNHHTMEYNV", "minimum log2 enrichment ratio": 2.62}
{"Molecule": "FPRWHQLPWPHHVYS", "minimum log2 enrichment ratio": 3.39}
{"Molecule": "KGVRETWLPAYTIVY", "minimum log2 enrichment ratio": 1.91}
{"data": "Further values, each from its own experiment", "baseline": "control"}
{"Compound": "O=C1NC(=O)c2c1c1c3ccccc3n3c1c1c2c2ccccc2n1[C@H]1CC[C@@H]3O1", "tested on": "Casein kinase II subunit alpha (CSNK2A1, Homo sapiens, UniProt P68400)", "assay": "enzyme activity, inhibitor", "setting": "0.5 µM", "measurement": "remaining activity", "value": "16.7%"}
{"Compound": "O=C1CN=C(c2ccccc2Cl)c2cc([N+](=O)[O-])ccc2N1", "tested on": "Plasmodium berghei", "system": "Huh-7, liver stage", "setting": "10 µM, 24 h", "measurement": "parasite load", "value": "90.4%"}
